Measured values of several laboratories.
Each line is one published result; not all experiments were run side by side. “And” joins repeats or separate records; there may be more than shown. Numbers after ± are the reported error.

| Structure (SMILES) | target or system | test | system | conditions | scale | quantity | value |
| --- | --- | --- | --- | --- | --- | --- | --- |
| O=C(COc1ccc(Cl)cc1)NC12CC(c3nnc([C@H]4C[C@@H](OC(F)(F)F)C4)o3)(C1)C2 |  | refers to: Fatigue | human | 100 mg once daily, 28 (unit not given) |  | adverse event incidence | 40% |
| CCCn1cc(C)c2c(=O)[nH]c(-c3cc(S(=O)(=O)N4CCN(CC)CC4)ccc3OCC)nc21 |  |  | human | concentration not given |  | pharmacodynamic-related TEAEs | 27.8% |
| COc1ccc2c(c1)CN(C(=O)CCN1CCC(Cc3ccccc3)CC1)CC[S@@+]2[O-] |  | telemetry | conscious dog | intravenous, 4 mg/kg, 1 h |  | diastolic blood pressure | 76 ± 6 mmHg |
| O=C(Nc1cnccc1Cl)N1CCN(Cc2ccc3c(c2)OC(F)(F)O3)CC1 |  | refers to: Ecchymosis | healthy elderly humans | 100 mg once daily, 10 days |  | volunteers with adverse event | 0% |
| COc1ccc2[nH]c([S@+]([O-])Cc3ncc(C)c(OC)c3C)nc2c1 |  |  | human male, dried plasma spots | oral, 5 mg racemic omeprazole, with: fluvoxamine and voriconazole |  | AUC(0-8 h) | 1.58 µM·h |
| CC(C)c1nc(N(C)S(C)(=O)=O)nc(-c2ccc(F)cc2)c1/C=C/[C@@H](O)C[C@@H](O)CC(=O)O |  | refers to: any adverse event | healthy men | oral, dose not given, 8 days, treatment-emergent, crossover trial |  | subjects with adverse event | 13.6% |
| Cc1cc(C)c(CNC(=O)c2cc(Cl)c3c(c2C)O[C@@](C)([C@H]2CC[C@H](N(C)C)CC2)O3)c(=O)[nH]1 |  |  | relapsed/refractory NHL patients | oral, 200 mg once daily, onset after cycle 1 day 1 |  | grade ≥3 adverse event Hypophosphatemia | 4.2% |
| C=CCn1c(=O)c2cnc(Nc3ccc(N4CCN(C)CC4)cc3)nc2n1-c1cccc(C(C)(C)O)n1 |  |  | human | oral, 150 mg twice daily, monotherapy lead-in, -5 days | geometric mean | AUC(0-t) | 5.04 µM·h |
| O=C(O)CCC(=O)O.[2H]C([2H])([2H])Oc1cc(C)c2[nH]ccc2c1CN1CC[C@@H](C2CC2)C[C@H]1c1ccc(C(=O)O)cc1 |  |  | human, plasma | 200 mg once daily, day 10, multiple ascending dose, geometric mean |  | AUC(0-tau) | 67000 ng·h/mL |
| OC[C@H]1O[C@@H](c2ccc(F)c(Cc3cc4ccccc4s3)c2)[C@H](O)[C@@H](O)[C@@H]1O |  |  | Japanese patients, type 1 diabetes | oral, 25 mg/day, onset day 11 | baseline: patients | hypoglycaemia-related adverse event | 2% |
| CO[C@H]1C[C@@H]2CC[C@@H](C)[C@@](O)(O2)C(=O)C(=O)N2CCCC[C@H]2C(=O)O[C@H]([C@H](C)C[C@@H]2CC[C@@H](O)[C@H](OC)C2)CC(=O)[C@H](C)/C=C(\C)[C@@H](O)[C@@H](OC)C(=O)[C@H](C)C[C@H](C)/C=C/C=C/C=C/1C |  |  | healthy adult horses | oral, 0.06 mg/kg, 10 h |  | heart rate | 33.5 ± 2.8 beats/min |
| C[C@@H]1CN(c2c(F)c(N)c3c(=O)c(C(=O)O)cn(C4CC4)c3c2F)C[C@H](C)N1 |  |  | male Hartley guinea pigs, anaesthetized | intravenous, 3 mg/kg group, baseline before infusion |  | heart rate | 238 ± 0.5 beats/min |
| O=c1c(O)c(-c2ccc(O)c(O)c2)oc2cc(O)cc(O)c12 |  |  | human CSF | concentration not given, mean |  | CSF concentration | not detected |
| CC(=O)N(C)C1CCN(c2cc(F)cc(NC(=O)c3cc4c(F)ccc(C)c4[nH]3)c2)C1 (centres unmarked) |  |  | CD1 mouse, plasma | intravenous, 1 mg/kg, 7 h |  | plasma concentration | 0.716 ng/mL |
| COc1ccc(CNc2nc(-c3ccc(C(=O)O)cc3)nc3c2c2ccccc2n3C)cc1Cl |  |  | NSG mice | dose not given, day 1 of treatment |  | body weight | 20.7 g and 21.4 g and 23.5 g and 22.6 g |
| O=C(Nc1nc2cccc(-c3ccc(CN4CCS(=O)(=O)CC4)cc3)n2n1)C1CC1 |  | refers to: blood and lymphatic disorders | rheumatoid arthritis patients | oral, 30 mg once daily, 4 weeks, any relatedness |  | treatment-emergent adverse events | 0% |
| C[C@H](CS)C(=O)N1CCC[C@H]1C(=O)O |  |  | male Hartley guinea pigs, anaesthetized | intravenous, 10 mg/kg over 10 min, after infusion |  | heart rate | 235 ± 0.3 beats/min |
| COc1ccc(CCNCCCC(C#N)(c2ccc(OC)c(OC)c2)C(C)C)cc1OC (centres unmarked) |  | equilibrium dialysis | human liver microsomes | 2 µM, 20 h, pH 7.4, 37 °C, 0.5 mg/mL scaled to 1 mg/mL |  | fu,mic | 0.71 |
| CN(CCC(=O)O)C(=O)c1ccc2c(c1)CC[C@@H]1[C@@H]2CC[C@]2(C)C(c3cncc(F)c3)=CC[C@@H]12 |  |  | premenopausal women with endometriosis pain, serum | 60 mg twice daily, end of treatment, completers, median |  | indirect bilirubin | 0.44 mg/dL |
| CC(C)C[C@H](NC(=O)[C@H](Cc1ccccc1)NC(=O)c1cnccn1)B(O)O |  |  | mouse xenograft, lung | dose not given |  | organ weight | 151 mg |
| CC(C)(C(=O)N1CCOc2c(C#N)cncc2C1)C(F)F |  | refers to: Arthralgia | human | oral, 10 mg once daily, 14 days, multiple ascending dose |  | subjects with adverse event | 0% |

| Structure (SMILES) | target or system | test | system | conditions | scale | quantity | value |
| --- | --- | --- | --- | --- | --- | --- | --- |
| CCN1/C(=C/C(C)=O)Sc2ccc(F)cc21 |  |  | cynomolgus monkey | oral, 30 mg/kg, 0.5 h post-dose | baseline: pre-dose | mean blood pressure change | 99.4 ± 4.7% |
| CNC(=O)c1ccc(-c2cnc3ncc(Cc4ccc5ncccc5c4)n3n2)cc1F |  |  | Japanese patients | oral, 400 mg, grade 3/4 |  | AST increased patients | 2% |
| COc1ccc([C@@H](O)c2cc(-c3ncnc4cc(N5CCOCC5)ccc34)c(F)cc2Cl)nn1 |  |  | locally advanced rectal cancer patients | 50 mg, with: capecitabine and radiotherapy |  | drug-related lymphopenia incidence | 0% |
| CCOc1c([C@H](C)n2nc(C)c3c(N)ncnc32)cc(Cl)c(F)c1[C@@H]1CNC(=O)C1 |  |  | patients with DLBCL, plasma | oral, 20 mg, day 15, monotherapy |  | Tmax | 1 h |
| COc1ccc(CCC(=O)O)cc1OS(=O)(=O)O |  |  | human CSF | concentration not given, mean |  | CSF concentration | not detected |
| Cc1ccc(Sc2ccccc2N2CCNCC2)c(C)c1 |  | refers to: eosinophil count increased | healthy adult women | oral, 5 mg daily, 12 days |  | participants with TEAE | 0% |
| CNC(=O)c1cc(Oc2ccc(NC(=O)Nc3cc(C(C)(C)C)nn3-c3ccc4ncccc4c3)c(F)c2)ccn1 |  |  | patients | oral, dose not given, cycles 1 and 2, Low Cmax subgroup |  | patients with grade 3 musculoskeletal disorders | 6% |
| C[C@@H](NC(=O)N1C(=O)[C@H](Cc2ccnc(N)c2)[C@H]1C(=O)O)C1CCCCC1 |  | UPLC-MS/MS | healthy adult Chinese volunteers, plasma | continuous intravenous infusion, 1.5 mg/kg/h, day 1 of 5-day infusion, median |  | time to steady state | 1.5 h |
| CCN1CCN(Cc2ccc(NC(=O)c3ccc(C)c(NC(=O)c4cncc(-c5cccs5)c4)c3)cc2C(F)(F)F)CC1 |  | LC-MS/MS | C57BL/6 mouse, plasma | intraperitoneal, 15 mg/kg single dose, 4 h |  | plasma concentration | 172 ng/mL and 113 ng/mL and 146 ng/mL |
| O=C1Cc2cc(CCN3CCN(c4nsc5ccccc45)CC3)c(Cl)cc2N1 |  |  | male Hartley guinea pigs, anaesthetized | intravenous, 0.3 mg/kg over 10 min, after infusion |  | heart rate | 186 ± 0.3 beats/min |
| CNc1ccc(-c2nc3ccc(O)cc3s2)cc1 [carbon-11 labelled] |  | microPET/CT imaging | APP/PS1 mouse, AD model, brain | intravenous, 5 min |  | SUV | 0.866 ± 0.386 |
| C[C@@H](O)CCOC(=O)C[C@@H](C)O |  |  | human | oral drink, dose not given, 60 min post dose, mean |  | systolic blood pressure | 109 mmHg |
| O=c1c(O)c(-c2ccc(O)cc2O)oc2cc(O)cc(O)c12 |  |  | human CSF | concentration not given, mean |  | CSF concentration | not detected |
| CC(C(=O)NCC(=O)NCC(CNC(=O)CNC(=O)C(C)N1CCN(CC(=O)[O-])CCN(CC(=O)[O-])CCN(CC(=O)[O-])CC1)(CNC(=O)CNC(=O)C(C)N1CCN(CC(=O)[O-])CCN(CC(=O)[O-])CCN(CC(=O)[O-])CC1)CNC(=O)CNC(=O)C(C)N1CCN(CC(=O)[O-])CCN(CC(=O)[O-])CCN(CC(=O)[O-])CC1)N1CCN(CC(=O)[O-])CCN(CC(=O)[O-])CCN(CC(=O)[O-])CC1.[Gd+3].[Gd+3].[Gd+3].[Gd+3] (centres unmarked) |  | ICP-MS | cynomolgus monkey | dose not given, 3 d, mass balance group | baseline: dose | cumulative urinary excretion | 99.9% |
| Cc1c(Cl)c(C)[n+]([O-])c(Cl)c1-c1noc(-c2cc(O)c(O)c([N+](=O)[O-])c2)n1 |  |  | healthy Chinese subjects | oral, 50 mg, 10 days |  | TEAEs causing discontinuation | 0% |
| CCC(C)n1ncn(-c2ccc(N3CCN(c4ccc(OCC5COC(Cn6cncn6)(c6ccc(Cl)cc6Cl)O5)cc4)CC3)cc2)c1=O (centres unmarked) |  |  | healthy human volunteers | oral, 200 mg, compound alone cohort |  | incidence of oesophageal spasm | 0% |
| Cn1cc(-c2ccc(-c3cncc(Cl)c3N3CCC4(CCNC4=O)CC3)cc2)cn1 | COLO 205 | microarray, refers to: IFIT3 |  | concentration not given, 6 h, gene set RIG-G | baseline: untreated cells | fold change in expression | 2.21 |
| CS(=O)(=O)c1ccc([C@@H](O)[C@@H](CF)NC(=O)C(Cl)Cl)cc1 |  |  | chicken (Arbor Acres), plasma | oral, 20 mg/kg, with: saline pretreatment |  | MRT(0-inf) | 3.35 ± 0.48 h |
| C[C@@H](Nc1cc(F)cc(F)c1)c1cc(C(=O)N(C)C)cc2c(=O)cc(N3CCOCC3)oc12 |  | refers to: confusional state | patients with advanced solid tumours | oral, dose not given, dose expansion phase I |  | treatment-related serious adverse events | 0% |
| CC(C)C[C@H](NC(=O)CNC(=O)c1cc(Cl)ccc1Cl)B(O)O |  |  | newly diagnosed multiple myeloma patients | oral, dose not given, Constipation, maintenance |  | adverse events all grades | 11% |

For quick reference, copied from above:
| Structure (SMILES) | target or system | test | system | conditions | scale | quantity | value |
| --- | --- | --- | --- | --- | --- | --- | --- |
| CCN1/C(=C/C(C)=O)Sc2ccc(F)cc21 |  |  | cynomolgus monkey | oral, 30 mg/kg, 0.5 h post-dose | baseline: pre-dose | mean blood pressure change | 99.4 ± 4.7% |
| C[C@@H](O)CCOC(=O)C[C@@H](C)O |  |  | human | oral drink, dose not given, 60 min post dose, mean |  | systolic blood pressure | 109 mmHg |
| Cc1cc(C)c(CNC(=O)c2cc(Cl)c3c(c2C)O[C@@](C)([C@H]2CC[C@H](N(C)C)CC2)O3)c(=O)[nH]1 |  |  | relapsed/refractory NHL patients | oral, 200 mg once daily, onset after cycle 1 day 1 |  | grade ≥3 adverse event Hypophosphatemia | 4.2% |
